Assay results from different studies.
Every numbered part comes from another study and shows a few of its results, in no order.

Series 1
Target: Interferon regulatory factor 3, full length, phosphomimetic (IRF3, Homo sapiens, UniProt Q14653, residues 1-427, S386D/S396D/S398D/S402D/T404D/S405D)
Chain of UniProt Q14653 (whole entry, unmodified, looked up): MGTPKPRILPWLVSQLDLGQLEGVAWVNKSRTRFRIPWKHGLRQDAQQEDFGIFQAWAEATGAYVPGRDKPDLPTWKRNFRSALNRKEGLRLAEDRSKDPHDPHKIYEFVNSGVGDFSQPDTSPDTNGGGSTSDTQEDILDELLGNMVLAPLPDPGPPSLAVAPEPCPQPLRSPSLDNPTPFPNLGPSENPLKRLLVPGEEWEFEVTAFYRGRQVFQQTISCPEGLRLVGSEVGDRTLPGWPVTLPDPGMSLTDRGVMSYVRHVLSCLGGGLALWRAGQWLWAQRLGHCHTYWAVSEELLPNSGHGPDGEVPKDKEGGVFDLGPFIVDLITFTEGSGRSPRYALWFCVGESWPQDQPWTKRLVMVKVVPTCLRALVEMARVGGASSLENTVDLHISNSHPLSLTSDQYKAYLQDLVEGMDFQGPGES
Method: protein-binding microarray
Molecule type: double-stranded DNA, one strand shown
Matrix: in vitro
Concentration: 2540 nM top
Notes: 60-bp whole probe
Added: salmon DNA 0.4 mg/ml
Reference: random background probes
Reading: higher = stronger binding
Shared flanks, not repeated: GCCTAGCAC … GTCTTGATTCGCTTGACGCTGCTG
Sequence	fitted relative affinity [z-score]
TGAGCTACAGATGAGGCTCGGTGCTAG	-0.503
TTTAAGCTCCTATCTTATGATGTGCTA	1.19
GTAGATATCGGGTATCGATTAGTGCTA	0.394
GACGGTCTCGGTCTCGGGATGTGCTAG	1.28
TCACTTCTAATATTCATACTGTGCTAG	1.86

Series 2
Target: PABPC1L2, full length, GST fusion (mouse, UniProt A0ABA7IW68)
Method: RNAcompete
Molecule type: RNA
Matrix: in vitro
Concentration: 20 nM
Notes: 7-mer, probes averaged, single round
Reference: mean of 7-mers
Reading: higher = stronger binding
Construct (chain): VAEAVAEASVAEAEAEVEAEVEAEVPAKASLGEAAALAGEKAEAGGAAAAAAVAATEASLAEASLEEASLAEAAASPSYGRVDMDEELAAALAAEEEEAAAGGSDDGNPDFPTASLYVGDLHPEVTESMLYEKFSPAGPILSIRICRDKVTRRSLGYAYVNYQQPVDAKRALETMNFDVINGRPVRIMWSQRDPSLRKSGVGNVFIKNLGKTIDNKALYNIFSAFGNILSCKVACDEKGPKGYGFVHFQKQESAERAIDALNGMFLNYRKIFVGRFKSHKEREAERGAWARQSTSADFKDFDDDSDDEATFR
Sequence	7-mer Z-score
UUUGCCA	-0.293
CAUUACA	-0.012
CUAUAUC	-0.257
GUAGGGU	0.0587
AGGGUCA	0.287

Series 3
Target: Histone acetyltransferase KAT6A, winged helix 2, GST fusion (KAT6A, Homo sapiens, UniProt Q92794, residues 85-181)
Method: protein binding microarray
Molecule type: double-stranded DNA, one strand shown
Matrix: in vitro
Concentration: not given
Notes: 8-mer, flanks averaged, mean of 2 arrays, mostly near background
Reference: not given
Reading: higher = stronger binding
Construct (chain): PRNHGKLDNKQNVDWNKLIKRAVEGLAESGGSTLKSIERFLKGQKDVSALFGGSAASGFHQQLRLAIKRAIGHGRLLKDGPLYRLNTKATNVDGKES
Sequence	E-score
TCCTTGAA	-0.196
AGCTGCGA	0.163
ATGGCTAA	-0.0775
ACGGTATA	-0.156
ATTCATGG	-0.0854
ATTTGTAG	-0.00231
GGCAGTAA	-0.0541

Other studies, line by line
Molecule	target	test	test system	conditions	how to read	quantity	value
PhoQ, residues 284 288 289 292 302 303 TAVSDG	PhoP, residues 12 14 15 18 19 SMASL (Escherichia coli, UniProt P23836)	Sort-seq, measured: YFP reporter	E. coli	PhoQ-PhoP variant library, added: 10 µM Mg2+	reference: high Mg2+ state, higher = stronger signaling	fold induction	7.35

A few entries again (series 1):
Sequence	fitted relative affinity [z-score]
GTAGATATCGGGTATCGATTAGTGCTA	0.394
TCACTTCTAATATTCATACTGTGCTAG	1.86
